{"data": "Results from different studies", "note": "Numbered parts are unrelated; each lists some results of a single study."}
{"data": "Series 1", "target": "Interferon regulatory factor 5, full length, phosphomimetic (IRF5, Homo sapiens, UniProt Q13568-2, residues 1-514, K96S/S451D/S453D/S456D/S462D)", "technique": "protein-binding microarray", "molecule type": "double-stranded DNA, one strand shown", "matrix": "in vitro", "concentration": "250 nM", "setting": "60-bp whole probe", "together with": "salmon DNA 0.4 mg/ml", "baseline": "random background probes", "reading": "higher = stronger binding", "shared flanks, not repeated": "GCCTAGCAC … GTCTTGATTCGCTTGACGCTGCTG"}
{"Strand": "TCACCTCTTTCTTTGCTACTGTGCTAG", "log fluorescence [z-score]": 1.09}
{"Strand": "TTAGGACTGGACACTCGGTTAGTGCTA", "log fluorescence [z-score]": -0.314}
{"Strand": "GAGGGTATCCTTATCCTGACGTGCTAG", "log fluorescence [z-score]": -0.264}
{"Strand": "TCAACAATGGCTTTGCCACTGTGCTAG", "log fluorescence [z-score]": -0.29}
{"Strand": "CTAGATATCAGTCTCGATTAGTGCTAG", "log fluorescence [z-score]": 1.41}
{"Strand": "GACCGTTTCCTTTCCCTGACGTGCTAG", "log fluorescence [z-score]": 1.15}
{"Strand": "TCCTAATTCTCTTTTCACTTGTGCTAG", "log fluorescence [z-score]": 1.66}
{"Strand": "GACGGAATGGGGACTGGGGACGTGCTA", "log fluorescence [z-score]": -0.209}
{"Strand": "TTAGATATCAGACTGGAGTAGTGCTAG", "log fluorescence [z-score]": 0.255}
{"Strand": "GACGAGCTCAGTTTCGAGACGTGCTAG", "log fluorescence [z-score]": 4.92}
{"Strand": "AACTTTTTTTTTTCCCTGAAGTGCTAG", "log fluorescence [z-score]": 0.997}
{"Strand": "GACGGTATCCTACTGCAGACGTGCTAG", "log fluorescence [z-score]": -0.0575}
{"Strand": "TCATGTTTCCTTGTACGACTGTGCTAG", "log fluorescence [z-score]": 0.797}
{"Strand": "GACGGACTGCCACTGCTGACGTGCTAG", "log fluorescence [z-score]": -0.715}
{"Strand": "GACGAACAGAGTCTCGAGACGTGCTAG", "log fluorescence [z-score]": -0.469}
{"Strand": "TTAGATTCCAGTTTGGATTAGTGCTAG", "log fluorescence [z-score]": 0.322}
{"Strand": "GACGATTTCGGACTGGGGACGTGCTAG", "log fluorescence [z-score]": 1.37}
{"Strand": "GACGGTCTCGGTCTAGGGACGTGCTAG", "log fluorescence [z-score]": 0.219}
{"Strand": "TTAGGACTGGGGACTGGGTTCGTGCTA", "log fluorescence [z-score]": -0.484}
{"data": "Series 2", "target": "PABPC1L2, full length, GST fusion (mouse, UniProt A0ABA7IW68)", "technique": "RNAcompete", "molecule type": "RNA", "matrix": "in vitro", "concentration": "20 nM", "setting": "7-mer, probes averaged, single round", "baseline": "mean of 7-mers", "reading": "higher = stronger binding", "Construct (chain)": "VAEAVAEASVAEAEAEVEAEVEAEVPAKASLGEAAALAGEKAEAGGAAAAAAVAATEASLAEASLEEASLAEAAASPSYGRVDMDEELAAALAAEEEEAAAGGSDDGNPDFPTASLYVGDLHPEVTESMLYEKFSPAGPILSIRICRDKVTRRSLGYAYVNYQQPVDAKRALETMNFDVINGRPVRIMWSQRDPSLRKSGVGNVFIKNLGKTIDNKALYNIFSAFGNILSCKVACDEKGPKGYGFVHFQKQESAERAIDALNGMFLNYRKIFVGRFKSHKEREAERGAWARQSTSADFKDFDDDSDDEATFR"}
{"Strand": "GGCGGAU", "7-mer Z-score": 0.463}
{"Strand": "AAUGUGG", "7-mer Z-score": 0.604}
{"Strand": "GAGACCC", "7-mer Z-score": -0.0681}
{"Strand": "GCUCACA", "7-mer Z-score": -0.104}
{"Strand": "CGGCGCG", "7-mer Z-score": -0.157}
{"Strand": "UAUAGGU", "7-mer Z-score": -0.233}
{"Strand": "AUUAUCU", "7-mer Z-score": -0.115}
{"Strand": "GACGGGG", "7-mer Z-score": -0.133}
{"Strand": "AGCUAUC", "7-mer Z-score": -0.222}
{"Strand": "GAUCUCC", "7-mer Z-score": -0.394}
{"Strand": "GAGAUCC", "7-mer Z-score": -0.121}
{"Strand": "CGGCCAG", "7-mer Z-score": -0.0699}
{"Strand": "GUUGUGU", "7-mer Z-score": -0.472}
{"Strand": "ACAUGAG", "7-mer Z-score": 0.102}
{"Strand": "UAUCGGC", "7-mer Z-score": 0.017}
{"Strand": "CAGAACA", "7-mer Z-score": 0.0895}
{"Strand": "AGGAAGU", "7-mer Z-score": -0.208}
{"Strand": "UUACGAG", "7-mer Z-score": 0.119}
{"Strand": "CGCUGCU", "7-mer Z-score": -0.266}
{"Strand": "GUGCUGC", "7-mer Z-score": -0.137}
{"Strand": "UAAGAUU", "7-mer Z-score": -0.0826}
{"Strand": "CUGAUAU", "7-mer Z-score": -0.175}
{"Strand": "GCGAGAU", "7-mer Z-score": 0.0678}
{"data": "Series 3", "target": "Histone acetyltransferase KAT6A, winged helix 1, GST fusion (KAT6A, Homo sapiens, UniProt Q92794, residues 1-85)", "technique": "protein binding microarray", "molecule type": "double-stranded DNA, one strand shown", "matrix": "in vitro", "concentration": "not given", "setting": "8-mer, flanks averaged, mean of 2 arrays, mostly near background", "baseline": "not given", "reading": "higher = stronger binding", "Construct (chain)": "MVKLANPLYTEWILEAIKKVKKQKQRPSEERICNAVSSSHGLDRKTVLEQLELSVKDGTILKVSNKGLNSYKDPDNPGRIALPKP"}
{"Strand": "GTGGCCAC", "E-score": -0.188}
{"Strand": "ACTCAATC", "E-score": -0.0769}
{"Strand": "CGTGTAAA", "E-score": -0.0542}
{"Strand": "CAATTTGC", "E-score": -0.156}
{"Strand": "GCAGGTTA", "E-score": 0.0967}
{"Strand": "CTACTAAA", "E-score": 0.0542}
{"Strand": "CGGGCCGA", "E-score": 0.237}
{"Strand": "CTGATGTA", "E-score": -0.104}
{"Strand": "CATCCCAG", "E-score": -0.207}
{"Strand": "ACTGCGGA", "E-score": 0.232}
{"Strand": "GGCAGGCA", "E-score": -0.154}
{"Strand": "ATCCTCCC", "E-score": -0.0614}
{"Strand": "ACGACCTC", "E-score": -0.00823}
{"Strand": "CCCCTGGA", "E-score": -0.172}
{"Strand": "GCAGGCCC", "E-score": -0.0173}
{"Strand": "ACGGAAGT", "E-score": 0.266}
{"Strand": "AAATATAT", "E-score": -0.127}
{"Strand": "AGACTGAT", "E-score": -0.129}
{"Strand": "CTTGCATC", "E-score": -0.156}
{"Strand": "CCTCATAG", "E-score": -0.308}
{"Strand": "GAAATTCA", "E-score": -0.109}
{"Strand": "CCATTCAG", "E-score": -0.156}
{"data": "Series 4", "target": "Prothrombin, mature alpha-thrombin (F2, Homo sapiens, UniProt P00734)", "technique": "aptamer microarray, sandwich", "molecule type": "DNA with 2'F-ANA", "matrix": "in vitro", "concentration": "200 nM", "setting": "whole 15-mer aptamer, many near background", "together with": "Cy3 exosite-II aptamer, 400 nM", "reading": "higher = stronger binding", "strand": "GGTTGGTGTGGTTGG"}
{"Modification": "2'F-ANA at 1 5 6 9 10 11 13 14", "mean fluorescence intensity [a.u.]": 50.5}
{"Modification": "2'F-ANA at 1 5 6 7 8 10 11 15", "mean fluorescence intensity [a.u.]": 48.8}
{"Modification": "2'F-ANA at 2 4 5 8 9 12 13 14", "mean fluorescence intensity [a.u.]": 53.4}
{"Modification": "2'F-ANA at 1 4 6 7 8 10 12 13 15", "mean fluorescence intensity [a.u.]": 55.3}
{"Modification": "2'F-ANA at 1 3 6 8 11 12 13", "mean fluorescence intensity [a.u.]": 649}
{"Modification": "2'F-ANA at 1 3 5 6 7 8 10 11 12 13 14 15", "mean fluorescence intensity [a.u.]": 50.9}
{"Modification": "2'F-ANA at 1 2 4 6 7 8 13 14 15", "mean fluorescence intensity [a.u.]": 53.8}
{"Modification": "2'F-ANA at 1 3 4 5 6 9 13 15", "mean fluorescence intensity [a.u.]": 51.1}
{"Modification": "2'F-ANA at 2 3 6 11 12 14 15", "mean fluorescence intensity [a.u.]": 345}
{"Modification": "2'F-ANA at 1 3 5 6 7 8 9 11 12 14", "mean fluorescence intensity [a.u.]": 111}
{"Modification": "2'F-ANA at 1 3 5 6 10", "mean fluorescence intensity [a.u.]": 45.2}
{"Modification": "2'F-ANA at 1 2 3 4 10 11 12 14", "mean fluorescence intensity [a.u.]": 49.2}
{"Modification": "2'F-ANA at 3 4 6 7 10 11 13", "mean fluorescence intensity [a.u.]": 224}
{"Modification": "2'F-ANA at 2 3 7 8 9 10 12 13 15", "mean fluorescence intensity [a.u.]": 373}
{"Modification": "2'F-ANA at 5 10 12 13 14", "mean fluorescence intensity [a.u.]": 44.3}
{"Modification": "2'F-ANA at 1 3 7 9 11 13 14 15", "mean fluorescence intensity [a.u.]": 93.7}
{"Modification": "2'F-ANA at 2 3 4 5 6 13", "mean fluorescence intensity [a.u.]": 56.9}
{"Modification": "2'F-ANA at 1 2 5 6 8 9 12 13 14", "mean fluorescence intensity [a.u.]": 47.4}
{"Modification": "2'F-ANA at 1 7 9 10 12 13 15", "mean fluorescence intensity [a.u.]": 73.2}
{"Modification": "2'F-ANA at 1 2 6 7 8 11 13 15", "mean fluorescence intensity [a.u.]": 123}
{"Modification": "2'F-ANA at 1 8 11 12 13 14", "mean fluorescence intensity [a.u.]": 74.1}
{"Modification": "2'F-ANA at 2 4 5 7 8 10 12 13", "mean fluorescence intensity [a.u.]": 78.5}
{"note": "Some of these lines once more (series 3):"}
{"Strand": "GGCAGGCA", "E-score": -0.154}
{"Strand": "GTGGCCAC", "E-score": -0.188}
{"Strand": "CGTGTAAA", "E-score": -0.0542}
{"Strand": "CAATTTGC", "E-score": -0.156}
{"Strand": "ACGACCTC", "E-score": -0.00823}
{"Strand": "ACGGAAGT", "E-score": 0.266}
{"Strand": "CGGGCCGA", "E-score": 0.237}
{"Strand": "ACTCAATC", "E-score": -0.0769}
{"Strand": "CATCCCAG", "E-score": -0.207}
{"Strand": "ACTGCGGA", "E-score": 0.232}
